Published values from different studies.
Lines come from different studies, so protocols differ.
Target: Transcriptional activator protein LasR (lasR, Pseudomonas aeruginosa, UniProt P25084)
Observed: reporter gene
Sequence (P25084 1-239, as in one of the studies): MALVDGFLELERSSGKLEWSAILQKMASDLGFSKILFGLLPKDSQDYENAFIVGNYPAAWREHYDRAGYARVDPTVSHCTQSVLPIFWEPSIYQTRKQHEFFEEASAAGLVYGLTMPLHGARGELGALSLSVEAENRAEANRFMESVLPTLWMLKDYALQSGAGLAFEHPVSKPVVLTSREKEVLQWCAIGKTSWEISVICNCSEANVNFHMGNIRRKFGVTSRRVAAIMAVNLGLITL

For `O=C(Cn1cc(C2CCCC2)nn1)N[C@H]1CCOC1=O`, the IC50 was 16.3 µM (antagonist).
The IC50 of `CCCCCCCCCCCNC(=O)CC(=O)c1ccccc1` is reported as 0.5 µM (antagonist; Pseudomonas aeruginosa PAO-JP2 GFP reporter; together with: 150 nM OdDHL).
With `O=C(NCc1cccc([N+](=O)[O-])c1)c1ccccc1[N+](=O)[O-]` the EC50 was 25 µM (agonist; Escherichia coli, JLD271 LasR reporter).
`CCCCCCCCCC(=O)CC(=O)Nc1ccccc1O` gave an EC50 of 17 µM (agonist; PAO-JP2 pump active).
For `O=C(Cn1cc(C2CCCCC2)nn1)N[C@H]1CCOC1=O`, the IC50 was 12.4 µM (antagonist).
With `CS(=O)(=O)c1cccc(OCCCC(=O)NC2CC3CC3C2O)c1` (centres unmarked) the EC50 was over 20 µM (agonist).
`CCCCCC(=O)CC(=O)N[C@H]1CCOC1=O` gave an EC50 of over 200 µM (agonist; PAO-JP2 pump active).
`CCCCCc1cn(CC(=O)N[C@H]2CCOC2=O)nn1` has an IC50 of 3.27 µM (antagonist).
`O=C(CCCOc1cccc(Br)c1)N[C@H]1CCSC1=O` gave an EC50 of 0.013 µM (agonist; Escherichia coli, JLD271 with LasR plasmid).
For `CS(=O)(=O)c1cccc(OCCCC(=O)N[C@H]2CCOC2=O)c1`, the EC50 was 10 µM (agonist).
The IC50 of `CCCCCCCCCCNC(=O)CC(=O)c1ccccc1` is reported as 0.7 µM (antagonist; Pseudomonas aeruginosa PAO-JP2 GFP reporter; together with: 150 nM OdDHL).

Repeated from above:
`CCCCCc1cn(CC(=O)N[C@H]2CCOC2=O)nn1` has an IC50 of 3.27 µM (antagonist).
The IC50 of `CCCCCCCCCCNC(=O)CC(=O)c1ccccc1` is reported as 0.7 µM (antagonist; Pseudomonas aeruginosa PAO-JP2 GFP reporter; together with: 150 nM OdDHL).
